Results collected from several papers.
Parts stem from different laboratories: compare values within a part only. Positions count from the first letter of the parent shown.

Study 1 — technique: protein-binding microarray; form: double-stranded DNA, one strand shown; matrix: in vitro; tested at: 0.8 µM; notes: whole 60-bp probe, no competitor; direction: higher = stronger binding; endpoint: fluorescence intensity; all sequences stand within: … GTCTTGATTCGCTTGACGCTGCTG
Target: Centromere-binding protein 1, full length, N-terminal tag (CBF1, Saccharomyces cerevisiae, UniProt P17106, residues 1-351)
Sequence of UniProt P17106 (whole entry, looked up): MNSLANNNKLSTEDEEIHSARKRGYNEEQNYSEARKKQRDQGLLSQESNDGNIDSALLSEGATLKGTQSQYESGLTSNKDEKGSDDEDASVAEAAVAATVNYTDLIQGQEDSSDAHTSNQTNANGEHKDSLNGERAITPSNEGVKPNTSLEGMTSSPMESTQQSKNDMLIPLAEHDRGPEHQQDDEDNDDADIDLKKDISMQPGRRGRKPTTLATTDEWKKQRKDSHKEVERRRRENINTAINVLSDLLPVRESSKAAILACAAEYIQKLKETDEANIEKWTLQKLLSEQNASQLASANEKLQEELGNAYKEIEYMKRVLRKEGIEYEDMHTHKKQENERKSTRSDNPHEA
GAAATGGAACTTTATCAGGAGAAGTGGTTCAAATAG: 524 a.u.
GAAAAAAAGACTTGTGATGTCATACACAGATTGTAG: 610 a.u.
CTATTTTTCATTTATCCAGTCACAATTTTAAAATTC: 696 a.u.
CTATTTTCACGTGCTGCGCTGATGTAAGCAGCATTC: 6960 a.u.
GAAAATAATAATATACACGTTATCATTTTTTATTAG: 868 a.u.
CTAAATAAAATCACACCGACCACGCTTACATGGTTC: 557 a.u.
CCTAACTACTATAGGTGACTCACATAGCTTCGTACA: 517 a.u.
TGTACGAAGCTATGTCTGGTGACTATAGTAGTTAGG: 622 a.u.
CTATGGCGAACTGTGAACGTGCGCAGGGCAGAATTC: 594 a.u.
GAATTACATAGGCATCACGAAAAAAAGTCGCATTAG: 585 a.u.
CCTAACTACTATAGTCATGCGAGATAGCTTCGTACA: 545 a.u.
CCTAACTACTATAATCACACCCAATAGCTTCGTACA: 575 a.u.
GAAGTTTTGACTTGAAACGTGCAATATCCAAAATAG: 604 a.u.
CTACCGTTAAACTGTTTCACGTTATCAAGATTATTC: 869 a.u.

Study 2 — technique: universal PBM; form: double-stranded DNA, one strand shown; matrix: in vitro; tested at: 600 nM; direction: higher = stronger binding; endpoint: E-score
Target: Sal-like protein 4, full length isoform A (SALL4, Homo sapiens, UniProt Q9UJQ4, residues 1-1053)
Sequence of UniProt Q9UJQ4 (whole entry, looked up): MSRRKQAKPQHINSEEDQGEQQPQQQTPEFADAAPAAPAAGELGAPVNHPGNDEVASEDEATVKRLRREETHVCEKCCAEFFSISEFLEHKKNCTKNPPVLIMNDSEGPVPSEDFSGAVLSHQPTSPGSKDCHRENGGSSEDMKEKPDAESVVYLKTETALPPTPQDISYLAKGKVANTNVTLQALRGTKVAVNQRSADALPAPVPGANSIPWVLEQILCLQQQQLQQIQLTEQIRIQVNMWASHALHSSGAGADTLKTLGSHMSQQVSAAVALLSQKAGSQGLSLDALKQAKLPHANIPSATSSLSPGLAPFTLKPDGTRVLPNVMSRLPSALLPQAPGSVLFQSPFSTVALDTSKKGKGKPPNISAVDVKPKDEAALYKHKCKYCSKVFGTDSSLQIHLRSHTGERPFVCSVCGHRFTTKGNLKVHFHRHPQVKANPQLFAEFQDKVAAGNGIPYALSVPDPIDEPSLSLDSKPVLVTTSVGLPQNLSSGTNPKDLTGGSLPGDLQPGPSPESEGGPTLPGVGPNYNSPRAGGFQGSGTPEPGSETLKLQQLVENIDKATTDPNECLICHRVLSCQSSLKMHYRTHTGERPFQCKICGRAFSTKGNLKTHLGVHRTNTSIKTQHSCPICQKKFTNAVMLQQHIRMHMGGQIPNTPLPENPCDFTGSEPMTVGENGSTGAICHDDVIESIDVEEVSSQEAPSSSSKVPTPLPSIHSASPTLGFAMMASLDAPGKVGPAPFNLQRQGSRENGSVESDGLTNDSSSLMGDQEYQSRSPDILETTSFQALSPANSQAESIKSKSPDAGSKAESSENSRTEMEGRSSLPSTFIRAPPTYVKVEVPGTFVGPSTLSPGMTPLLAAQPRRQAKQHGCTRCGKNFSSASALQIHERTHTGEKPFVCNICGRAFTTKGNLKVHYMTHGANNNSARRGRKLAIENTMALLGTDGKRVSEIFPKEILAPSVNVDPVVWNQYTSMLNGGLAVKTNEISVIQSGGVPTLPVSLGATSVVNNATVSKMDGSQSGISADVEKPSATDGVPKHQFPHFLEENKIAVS
Notes: 8-mer, flanks averaged, mean of replicates
CTAGTTAA: 0.171
CCACACTA: 0.0868
CAATACAG: 0.0379
GCTTAGTA: 0.11
CCAAGTAG: -0.153
GAATTCTA: 0.188
AATGTTAA: 0.303
AAGATTCT: 0.0847
AAACCTAG: -0.0379
GCGCAACA: 0.000115
GGACCTCC: -0.364
ATCAGAAG: 0.0771
AAAGAGAT: 0.057
GAGTTAGA: -0.0365
AGGTGGTC: -0.149
AGTCCCAT: 0.0237
CCAGTTCC: -0.241
AATTGGAC: 0.14
TACGGACA: 0.0155
CGCTTCCG: -0.249
CCGATAAA: 0.18

Study 3 — technique: DHFR PCA, deep sequencing; matrix: yeast; with: (+)-ABA 0.39 µM; reference: wild-type fitted maximum; direction: higher = stronger binding; endpoint: relative binding score
Target: ABI1, truncated, D143A, DHFR fusion (Arabidopsis thaliana)
Notes: methotrexate growth selection, single substitutions
Parent: PYL1, truncated, DHFR fusion (Arabidopsis thaliana); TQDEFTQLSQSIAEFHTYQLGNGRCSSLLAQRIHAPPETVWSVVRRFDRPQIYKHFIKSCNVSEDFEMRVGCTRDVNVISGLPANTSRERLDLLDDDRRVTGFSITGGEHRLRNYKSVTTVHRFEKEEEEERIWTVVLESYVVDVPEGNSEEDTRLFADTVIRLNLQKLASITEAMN
G148D: 9.03%
E38H: 8.68%
L164A: 44.3%
L166E: 3.32%
T1C: 44.3%
G108R: -4.38%
T17D: -2.99%
V62C: 3.19%

Single results of other studies
PhoQ, residues 284 288 289 292 302 303 TSTLRA
fold induction (PhoP, residues 12 14 15 18 19 LHATL (Escherichia coli, UniProt P23836); Sort-seq, refers to: YFP reporter; E. coli; PhoQ-PhoP variant library, with: 10 µM Mg2+; reference: high Mg2+ state, higher = stronger signaling): 2.04

Excerpt of the above (study 2):
CCAGTTCC: -0.241
GCGCAACA: 0.000115
